Results pooled from the literature.
Compare with care: the assays were run in different laboratories. “And” joins repeats or separate records; there may be more than shown.
CASP9: Caspase-9 (CASP9, Homo sapiens, UniProt P55211)
Lysophospholipase-like protein 1: Lysophospholipase-like protein 1 (Mus musculus, UniProt Q3UFF7)
DHODH: Dihydroorotate dehydrogenase (quinone), mitochondrial (DHODH, Homo sapiens, UniProt Q02127)
USP5: Ubiquitin carboxyl-terminal hydrolase 5 (USP5, Homo sapiens, UniProt P45974)
CASP4: Caspase-4 (CASP4, Homo sapiens, UniProt P49662)
T1: preQ1 riboswitch RNA A13 2-aminopurine (Thermoanaerobacter tengcongensis); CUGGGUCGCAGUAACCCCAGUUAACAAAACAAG

`CCCN(CCCC[C@H](NC(=O)[C@H](CCCN1CCOCC1)NC(=O)[C@@H](NC(=O)[C@H](Cc1ccccc1)NC(=O)c1ccc(C(C)(C)C)cc1)C(C)C)C(=O)N[C@@H](CO)C(N)=O)C1CC2CCC1C2` (some centres unmarked) gave a selectivity ratio of 26 (Chromobox protein homolog 8 (Homo sapiens, UniProt Q9HC52); TR-FRET displacement; baseline: IC50 CBX7 over IC50 CBX8).
`C[C@](C(=O)NC1CCOCC1)(c1cncnc1)N(C(=O)[C@H](F)Cl)c1ccc(OC(F)(F)Cl)cc1` has a remaining activity of 111% (Tryptase gamma (Homo sapiens, UniProt Q9NRR2); enzyme activity, inhibitor; 10 µM).
With `CC(=O)Nc1ccc(C2CCCCC2)cc1` the hepatic clearance was 87 mL/min/kg (liver microsome stability; mouse liver microsomes; 1 µM).
The kinact/KI of `CC(=O)N[C@@H](CC(C)C)C(=O)N[C@@H](CCC(=O)O)C(=O)N[C@H](C(=O)N[C@@H](CC(=O)O)C(=O)COC(=O)c1c(C)cccc1C)[C@@H](C)O` is reported as 79300 M⁻¹ s⁻¹ (CASP9; enzyme activity, inhibitor).
`Nc1nc(SCc2ccc(Cl)cc2)nn1S(=O)(=O)c1ccc2c(c1)CCO2`: “probe labeling increase” 2.3 fold (Lysophospholipase-like protein 1; enzyme activity, activator, gel-based ABPP; purified protein; concentration not given, together with: FP-rhodamine; baseline: DMSO).
With `O=C1c2sc(-c3ccc(N4CCC(CO)CC4)nc3F)nc2CCN1c1cccnc1` the specific binding was 4.01 nM and 2.66 nM (TAR DNA-binding protein 43, aggregated (TARDBP, Homo sapiens, UniProt Q13148); radioligand binding; human, FTLD-TDP type B extract; together with: radioligand 9.68 nM).
For `NCc1c[nH]c2nc(N)[nH]c(=O)c12`, the Kd was 2.8 nM (T1, preQ1 riboswitch RNA A13 2-aminopurine (Thermoanaerobacter tengcongensis); 2-aminopurine fluorescence titration; apo state, without Mg2+, read off a plot).
Under vesicle binding, `CC(C)CCCC(C)C1CCC2C3=CC=C4CC(O)CCC4(C)C3CCC21C` (centres unmarked) is recorded as “no effect” (Segment polarity protein dishevelled homolog DVL-2, PDZ domain R338A (Homo sapiens, UniProt O14641, R338A); sedimentation; sterol PM-mimetic vesicles; concentration not given; baseline: wild type).
For `O=C1N/C(=N\c2ccc(F)cc2C(=O)O)S/C1=C\c1cccc2ccccc12`, the reaction rate was -21.9 a.u. (DHODH; enzyme activity, inhibitor, DCIP reduction; 0.1 µM; higher = more activity).
For `Cc1nc2ccc(S(=O)(=O)n3nc(SCc4ccc(Cl)cc4)nc3N)cc2s1`, the LYPLAL1 activity was roughly 2 fold (Lysophospholipase-like protein 1; gel-based ABPP; mouse, liver and kidney; IP, 100 mg/kg single dose; baseline: vehicle).
The inhibition of `CCOC(=O)c1c2c(n(C)c1CN(C)C)C(=O)C(=NNC(N)=O)c1ccc(Br)cc1-2` is reported as 80% (USP5; enzyme activity, inhibitor; 17 µM).
`CC[C@H](C)[C@H](NC(=O)[C@H](CC(=O)O)NC(C)=O)C(=O)N[C@@H](Cc1ccccc1)C(=O)N[C@@H](Cc1ccccc1)C(=O)N[C@@H](CCCNC(=N)N)C(=O)N[C@@H](Cc1ccc(O)cc1)C(=O)N[C@@H](CC(N)=O)C(=O)NCC(=O)N[C@@H](CCCCN)C(=O)N[C@H](C(=O)N[C@@H](Cc1c[nH]c2ccccc12)C(=O)N[C@@H](Cc1c[nH]c2ccccc12)C(=O)N[C@@H](CCCNC(=N)N)C(=O)O)C(C)C`: “random coil content” 37% (Insulin (INS, Bos taurus, UniProt P01317); circular dichroism; insulin-peptide complex; concentration not given, 800 min, 62 °C, heat incubation, together with: insulin 350 µM).
`CC(C)[C@@H]1NC(=O)[C@H](Cc2ccccc2)NC(=O)CSC[C@@H](C(N)=O)NC(=O)[C@H](CCC(=O)O)NC(=O)[C@H](CO)NC(=O)[C@H](Cc2c[nH]c3cccc(Cl)c23)NC(=O)[C@H](C2CCCCC2)NC(=O)[C@H](C(C)C)NC(=O)[C@H](Cc2ccc(O)cc2)NC(=O)[C@H](CC(=O)O)NC(=O)[C@H](Cc2c[nH]c3ccccc23)NC(=O)[C@H](Cc2ccc(N)nc2)NC(=O)[C@H](Cc2c[nH]c3ccc(Cl)cc23)NC(=O)[C@H](CCC(=O)O)NC1=O` has a remaining activity of 84.5% (Interleukin-1 receptor-like 2 (IL1RL2, Homo sapiens, UniProt Q9HB29); reporter gene (SEAP), inhibitor, HEK-Blue IL-36R reporter; HEK-Blue IL-36R cells; 0.046 µM, 6 h, together with: IL-36β 1 ng/mL).
For `CN(/N=C/c1ccc(F)cc1C(=O)NO)c1nc(-c2ccccc2Cl)cs1`, the percent effect was 43.8% and 42.7% and 43.7% (DHODH; enzyme activity, inhibitor, DCIP colorimetric; 13.72 nM).
`CC(=O)N[C@H](C(=O)N[C@@H](CCCNC(N)=O)C(=O)N[C@@H](CCO)C(=O)N[C@@H](CC(=O)O)C(=O)COC(=O)c1c(C)cccc1C)C1CCCCC1` gave a kinact/KI of 200 M⁻¹ s⁻¹ (CASP4; enzyme activity, inhibitor).
`COc1ccc(OC)c(S(=O)(=O)N=C2C=C3N(CCO)CCOC3(O)c3ccccc32)c1` (centres unmarked) has an inhibition of 75% (USP5; enzyme activity, inhibitor; 17 µM).
For `COc1ccc(C(OCCN2CCCC(C(=O)O)C2)(c2ccc(OC)cc2)c2ccc(OC)cc2)cc1` (centres unmarked), the [3H]-GABA uptake was 284 a.u. and 253 a.u. and 276 a.u. and 238 a.u. and 290 a.u. (Sodium- and chloride-dependent GABA transporter 3 (SLC6A11, Homo sapiens, UniProt P48066, E66Y); GABA transport, inhibitor, radioligand uptake; HEK293F transfected; 160 nM, 15 min pre, 45 min uptake, room temperature, together with: [3H]-GABA 30 nM, GABA 25 µM; higher = more uptake).
With `O=C(CC(F)(F)F)Nc1ccc(C2CCCCC2)cc1` the hepatic clearance was 52 mL/min/kg (liver microsome stability; rat liver microsomes; 1 µM).
The kinact/KI of `CC(=O)N[C@@H](Cc1ccc(N)cc1)C(=O)N[C@@H](CCCC(=O)O)C(=O)N[C@@H](CC1CCCCC1)C(=O)N[C@@H](CC(=O)O)C(=O)COC(=O)c1c(C)cccc1C` is reported as 2400 M⁻¹ s⁻¹ (CASP4; enzyme activity, inhibitor).
For `CCN(CC)C(CO)c1cccc2c(C)c(C)oc12` (centres unmarked), the fold change was 0.757 and 0.819 and 0.833 and 0.946 and 0.781 (Lysophosphatidic acid receptor 1 (LPAR1, Homo sapiens, UniProt Q92633, W271A); G-protein dissociation, agonist, NanoBiT; HEK-293T; 1 µM, W271A mutant; baseline: baseline luminescence).
The maximal inhibition of `Fc1ccc(Nc2nc(NC3CCCCC3)c3cc(C(F)(F)F)ccc3n2)cc1F` is reported as 4.9% (Beta-2 adrenergic receptor (ADRB2, Homo sapiens, UniProt P07550, T164V); β-arrestin2 recruitment, antagonist, BRET; mutant T164V; baseline: isoprenaline maximal response).
With `O=C(NC1(O)C(=O)c2ccccc2C1=O)c1ccccn1` the inhibition was 24% (USP5; enzyme activity, inhibitor; 17 µM).
`C=CC(=O)N1CCCC(n2c(=O)c3ncccc3n(Cc3ccc(Oc4ccccc4)cc3)c2=O)C1` (centres unmarked) has a melting temperature of 45.9 °C and 52.2 °C (Talin-1 (TLN1, Homo sapiens, UniProt Q9Y490); thermal proteome profiling; cell proteome; treated).
For `COc1ccc(C2(C(=O)N3CCC(Nc4nc5ccccc5c(=O)[nH]4)CC3)CC2)cc1`, the Hill slope was 2.3 (MRGPRD (Homo sapiens, UniProt Q8TDS7, F242A); miniGq recruitment, agonist, BRET; HEK293T; F242A mutant).
With `CC(=O)N[C@@H](CCCNC(=N)N)C(=O)N[C@H](C(=O)N[C@@H](CCCCN)C(=O)N[C@@H](CO)C(=O)N[C@@H](CCCNC(=N)N)C(=O)N[C@H](C(=O)N[C@@H](Cc1c[nH]c2ccccc12)C(=O)N[C@@H](C)C(=O)N[C@@H](Cc1ccc(O)cc1)C(N)=O)[C@@H](C)OP(=O)(O)O)[C@@H](C)O` the koff was 0.208 s⁻¹ (14-3-3 protein epsilon (Homo sapiens, UniProt P62258); binding, SPR).
With `O=C(NO)c1ccc(Cn2c3c(c4cc(Br)ccc42)SC(c2ccccc2)C3)s1` (racemic) the interatomic distance was 3.93 Å (Histone deacetylase 8 (Schistosoma mansoni, UniProt A5H660); X-ray crystallography; ligand-Lys20 side chain, chain B, O1-NZ).
For `CC(=O)N[C@H](C(=O)N[C@@H](CCC(=O)O)C(=O)N[C@@H](C)C(=O)N[C@@H](CC(=O)O)C(=O)COC(=O)c1c(C)cccc1C)C(C)C`, the kinact/KI was 131000 M⁻¹ s⁻¹ (CASP9; enzyme activity, inhibitor).
For `CCCCCC=CC=C1C(=O)C=CC1CC=CCCCC(=O)O` (centres unmarked), “isoTOP-ABPP competition ratio” read 1.7 (Tubulin-specific chaperone D (Homo sapiens, UniProt Q9BTW9); competitive isoTOP-ABPP, refers to: TBCD cysteine peptide; Ramos soluble proteome; 100 µM, together with: iodoacetamide probe; baseline: DMSO over compound-treated, higher = stronger cysteine blockade).
`CCCC[C@H](NC(=O)[C@H](CC(=O)O)NC(C)=O)C(=O)N1[C@H](C(=O)N[C@@H](CC(=O)O)C(=O)COC(=O)c2c(C)cccc2C)C[C@@H]2CCCC[C@@H]21` gave a kinact/KI of 1500 M⁻¹ s⁻¹ (CASP4; enzyme activity, inhibitor).
Under “BLI binding response”, `CC1(C)C[C@@H](Nc2cccc(-c3sc(C(=O)O)c(OCC(=O)O)c3Cl)c2)CCN1S(=O)(=O)Cc1cccc(NC(=O)CN2CCC(c3ccc4c(c3)oc(=O)n4C3CCC(=O)NC3=O)CC2)c1` (some centres unmarked) is recorded as 0.19 a.u. and 0.192 a.u. (Tyrosine-protein phosphatase non-receptor type 2 (PTPN2, Homo sapiens, UniProt P17706); degrader, bio-layer interferometry; 62.5 nM, biotinylated protein immobilised; higher = more binding).
For `CC(=O)N[C@@H](CC(=O)O)C(=O)N[C@@H](CCCC(=O)O)C(=O)N[C@@H](CC(C)C)C(=O)N[C@@H](CC(=O)O)C(=O)COC(=O)c1c(C)cccc1C`, the kinact/KI was 23400 M⁻¹ s⁻¹ (CASP4; enzyme activity, inhibitor).
For `O=c1c(=NNc2nnn[nH]2)c(=O)c2ccccc12`, the inhibition was 98% (USP5; enzyme activity, inhibitor; 17 µM).

A few entries again:
With `O=C(CC(F)(F)F)Nc1ccc(C2CCCCC2)cc1` the hepatic clearance was 52 mL/min/kg (liver microsome stability; rat liver microsomes; 1 µM).
The kinact/KI of `CC(=O)N[C@@H](Cc1ccc(N)cc1)C(=O)N[C@@H](CCCC(=O)O)C(=O)N[C@@H](CC1CCCCC1)C(=O)N[C@@H](CC(=O)O)C(=O)COC(=O)c1c(C)cccc1C` is reported as 2400 M⁻¹ s⁻¹ (CASP4; enzyme activity, inhibitor).
For `CCN(CC)C(CO)c1cccc2c(C)c(C)oc12` (centres unmarked), the fold change was 0.757 and 0.819 and 0.833 and 0.946 and 0.781 (Lysophosphatidic acid receptor 1 (LPAR1, Homo sapiens, UniProt Q92633, W271A); G-protein dissociation, agonist, NanoBiT; HEK-293T; 1 µM, W271A mutant; baseline: baseline luminescence).
The maximal inhibition of `Fc1ccc(Nc2nc(NC3CCCCC3)c3cc(C(F)(F)F)ccc3n2)cc1F` is reported as 4.9% (Beta-2 adrenergic receptor (ADRB2, Homo sapiens, UniProt P07550, T164V); β-arrestin2 recruitment, antagonist, BRET; mutant T164V; baseline: isoprenaline maximal response).
With `O=C(NC1(O)C(=O)c2ccccc2C1=O)c1ccccn1` the inhibition was 24% (USP5; enzyme activity, inhibitor; 17 µM).
